Measurements collected from several papers.
Compare with care: the assays were run in different laboratories.
Organism: Saccharomyces cerevisiae

Compound	test	system	setting	endpoint	result
CC1=NNC(=O)C1=NNc1ccc(S(N)(=O)=O)cc1	–	–	500 µg/mL	glucose uptake	60.9%
O=C(O)P(=O)(O)O	cell growth, OD600 after 16 h	parental strain (Pho84)	pH 4.3, 30 °C, added: 12 mM NaH2PO4	IC50	34 mM
COC(CNC1=CC2=NCCc3c[nH]c(c32)C1=O)c1c[nH]c2ccccc12 (stereo not drawn)	cell growth, liquid culture	BY4741	100 µM, 24 h	inhibition	42.3%
CC(=O)O	cell growth	–	22 h, pH 4.3	IC50	13 mM
CC1=NNC(=S)NC(=O)C1/N=N/c1ccc(S(N)(=O)=O)cc1 (stereo not drawn)	–	–	200 µg/mL	glucose uptake	65.1%
O=C1/C(=C/c2cc(O)c(O)c(O)c2)Oc2cccc(O)c21	–	YPD medium	30 °C	MIC	> 128 µg/mL
CC1=NN(c2ccc(Cl)cc2)C(=O)C1=NNc1ccc(S(N)(=O)=O)cc1	–	–	100 µg/mL	glucose uptake	29.4%
OC(Cn1cncn1)(Cn1cncn1)c1ccc(F)cc1F	cell growth, liquid culture	BY4741	100 µM, 24 h	inhibition	90.8%
CO[C@H]1[C@H](O[C@H]([C@H]2O[C@@H](n3ccc(=O)[nH]c3=O)[C@H](O)[C@@H]2O)[C@H](NCCCNC(=O)[C@@H](NC(=O)[C@@H](NC(=O)N[C@H](C(=O)O)C(C)C)[C@@H]2CCN=C(N)N2)[C@@H](O)C(C)C)C(=O)O)O[C@H](CN)[C@H]1O	alamar blue	BY4742	–	MIC50	> 35 µg/mL
CC1=NN(c2ccccc2)C(=O)C1=NNc1ccc(S(N)(=O)=O)cc1	–	–	100 µg/mL	glucose uptake	25.7%
O=C1c2[nH]cc3c2C(=NCC3)c2c(-c3ccc(O)cc3)c[nH]c21	cell growth, liquid culture	BY4741	100 µM, 24 h	inhibition	0.5%
CCN(CCCS(=O)(=O)O)c1cccc(C)c1	cell growth, OD600 after 16 h	parental strain (Pho84)	16 h, pH 4.3, 30 °C, added: 12 mM NaH2PO4	IC50	> 75 mM

Some of these lines once more:
Compound	test	system	setting	endpoint	result
O=C(O)P(=O)(O)O	cell growth, OD600 after 16 h	parental strain (Pho84)	pH 4.3, 30 °C, added: 12 mM NaH2PO4	IC50	34 mM
